# Measured values pooled from the literature.
# Each line is one published result; not all experiments were run side by side. Several values in a cell are separate wells, animals, samples, runs or records. ± marks the error that the study gave.
# nanI: Sialidase (nanI, Clostridium perfringens, UniProt A0A0H2YQR1)
# OPG149: Resolvase OPG149 (OPG149, Monkeypox virus, UniProt A0A7H0DNC1)
# UniProt A0A7H0DNC1, sequence (whole entry, looked up): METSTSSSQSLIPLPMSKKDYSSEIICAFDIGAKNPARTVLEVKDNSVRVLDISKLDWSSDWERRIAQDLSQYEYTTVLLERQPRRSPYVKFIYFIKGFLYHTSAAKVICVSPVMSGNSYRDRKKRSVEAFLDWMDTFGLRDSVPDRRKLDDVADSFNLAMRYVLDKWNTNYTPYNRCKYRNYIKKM
# Polyprotein P1234 nsP2 protease domain: Polyprotein P1234, nsP2 protease domain (Chikungunya virus, UniProt Q5XXP4)
# UniProt Q5XXP4, sequence (whole entry, looked up): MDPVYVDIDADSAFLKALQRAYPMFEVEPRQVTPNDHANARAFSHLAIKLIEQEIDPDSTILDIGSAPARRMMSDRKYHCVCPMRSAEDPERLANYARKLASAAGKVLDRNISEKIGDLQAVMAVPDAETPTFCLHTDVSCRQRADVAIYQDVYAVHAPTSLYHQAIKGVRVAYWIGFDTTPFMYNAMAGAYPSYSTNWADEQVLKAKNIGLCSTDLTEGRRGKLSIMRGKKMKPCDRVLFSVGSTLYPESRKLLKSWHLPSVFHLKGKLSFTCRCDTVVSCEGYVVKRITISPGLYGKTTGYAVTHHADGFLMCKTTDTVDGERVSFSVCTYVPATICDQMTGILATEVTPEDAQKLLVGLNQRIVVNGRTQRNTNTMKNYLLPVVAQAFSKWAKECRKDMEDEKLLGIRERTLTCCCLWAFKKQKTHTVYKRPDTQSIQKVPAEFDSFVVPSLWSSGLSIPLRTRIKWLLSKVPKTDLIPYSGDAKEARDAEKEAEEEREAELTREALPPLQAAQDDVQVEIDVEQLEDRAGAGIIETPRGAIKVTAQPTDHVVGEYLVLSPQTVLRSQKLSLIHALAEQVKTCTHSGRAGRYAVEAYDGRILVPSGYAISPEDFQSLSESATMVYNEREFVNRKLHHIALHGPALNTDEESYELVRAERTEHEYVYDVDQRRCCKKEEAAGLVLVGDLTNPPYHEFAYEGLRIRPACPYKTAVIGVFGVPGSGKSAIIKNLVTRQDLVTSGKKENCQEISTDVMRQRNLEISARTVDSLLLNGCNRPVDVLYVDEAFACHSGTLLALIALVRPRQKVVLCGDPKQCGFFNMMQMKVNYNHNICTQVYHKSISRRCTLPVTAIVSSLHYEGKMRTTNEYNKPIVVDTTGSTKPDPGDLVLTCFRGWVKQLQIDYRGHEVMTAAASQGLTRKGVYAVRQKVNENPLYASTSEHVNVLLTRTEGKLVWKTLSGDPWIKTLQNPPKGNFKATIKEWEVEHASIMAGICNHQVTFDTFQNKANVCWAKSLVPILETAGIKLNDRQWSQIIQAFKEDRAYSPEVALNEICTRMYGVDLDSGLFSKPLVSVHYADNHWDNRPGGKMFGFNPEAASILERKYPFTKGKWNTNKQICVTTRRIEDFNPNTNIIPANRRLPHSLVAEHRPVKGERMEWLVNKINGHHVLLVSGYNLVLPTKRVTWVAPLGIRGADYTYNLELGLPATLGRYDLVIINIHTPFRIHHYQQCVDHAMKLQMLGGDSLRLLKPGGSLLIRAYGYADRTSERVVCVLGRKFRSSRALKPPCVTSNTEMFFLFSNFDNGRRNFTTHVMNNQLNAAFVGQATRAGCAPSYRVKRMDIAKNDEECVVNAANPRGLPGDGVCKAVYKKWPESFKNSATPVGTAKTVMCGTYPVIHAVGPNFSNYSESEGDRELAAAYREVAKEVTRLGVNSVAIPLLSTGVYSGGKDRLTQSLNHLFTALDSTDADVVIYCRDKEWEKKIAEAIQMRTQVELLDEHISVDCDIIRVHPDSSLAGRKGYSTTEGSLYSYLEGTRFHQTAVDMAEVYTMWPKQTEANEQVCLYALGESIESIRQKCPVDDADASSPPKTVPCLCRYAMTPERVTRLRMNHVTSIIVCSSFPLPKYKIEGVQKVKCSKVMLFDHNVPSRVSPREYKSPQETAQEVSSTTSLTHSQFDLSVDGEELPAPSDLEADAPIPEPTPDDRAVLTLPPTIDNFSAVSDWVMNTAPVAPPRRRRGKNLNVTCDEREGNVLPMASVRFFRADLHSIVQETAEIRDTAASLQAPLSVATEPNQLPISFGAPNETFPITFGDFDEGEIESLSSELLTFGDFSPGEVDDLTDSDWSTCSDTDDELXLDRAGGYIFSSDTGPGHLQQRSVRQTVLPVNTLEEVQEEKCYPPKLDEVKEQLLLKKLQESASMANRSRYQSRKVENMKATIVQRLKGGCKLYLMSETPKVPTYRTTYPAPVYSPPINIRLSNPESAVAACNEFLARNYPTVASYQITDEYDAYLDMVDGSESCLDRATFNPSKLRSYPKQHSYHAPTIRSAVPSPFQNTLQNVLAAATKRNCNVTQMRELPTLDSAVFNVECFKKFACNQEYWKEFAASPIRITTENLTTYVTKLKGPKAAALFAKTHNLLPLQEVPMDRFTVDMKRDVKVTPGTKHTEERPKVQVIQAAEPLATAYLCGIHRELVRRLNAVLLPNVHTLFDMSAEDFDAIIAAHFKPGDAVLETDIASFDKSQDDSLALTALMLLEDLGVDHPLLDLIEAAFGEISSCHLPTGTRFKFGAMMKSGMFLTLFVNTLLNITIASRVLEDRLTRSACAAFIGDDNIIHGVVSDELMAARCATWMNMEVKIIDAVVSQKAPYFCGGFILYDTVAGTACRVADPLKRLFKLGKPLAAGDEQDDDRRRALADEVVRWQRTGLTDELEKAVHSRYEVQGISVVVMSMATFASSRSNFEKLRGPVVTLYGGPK
# HLA class I histocompatibility antigen, B alpha chain: HLA class I histocompatibility antigen, B alpha chain (Homo sapiens, UniProt P01889)
# UniProt P15423, sequence (whole entry, looked up): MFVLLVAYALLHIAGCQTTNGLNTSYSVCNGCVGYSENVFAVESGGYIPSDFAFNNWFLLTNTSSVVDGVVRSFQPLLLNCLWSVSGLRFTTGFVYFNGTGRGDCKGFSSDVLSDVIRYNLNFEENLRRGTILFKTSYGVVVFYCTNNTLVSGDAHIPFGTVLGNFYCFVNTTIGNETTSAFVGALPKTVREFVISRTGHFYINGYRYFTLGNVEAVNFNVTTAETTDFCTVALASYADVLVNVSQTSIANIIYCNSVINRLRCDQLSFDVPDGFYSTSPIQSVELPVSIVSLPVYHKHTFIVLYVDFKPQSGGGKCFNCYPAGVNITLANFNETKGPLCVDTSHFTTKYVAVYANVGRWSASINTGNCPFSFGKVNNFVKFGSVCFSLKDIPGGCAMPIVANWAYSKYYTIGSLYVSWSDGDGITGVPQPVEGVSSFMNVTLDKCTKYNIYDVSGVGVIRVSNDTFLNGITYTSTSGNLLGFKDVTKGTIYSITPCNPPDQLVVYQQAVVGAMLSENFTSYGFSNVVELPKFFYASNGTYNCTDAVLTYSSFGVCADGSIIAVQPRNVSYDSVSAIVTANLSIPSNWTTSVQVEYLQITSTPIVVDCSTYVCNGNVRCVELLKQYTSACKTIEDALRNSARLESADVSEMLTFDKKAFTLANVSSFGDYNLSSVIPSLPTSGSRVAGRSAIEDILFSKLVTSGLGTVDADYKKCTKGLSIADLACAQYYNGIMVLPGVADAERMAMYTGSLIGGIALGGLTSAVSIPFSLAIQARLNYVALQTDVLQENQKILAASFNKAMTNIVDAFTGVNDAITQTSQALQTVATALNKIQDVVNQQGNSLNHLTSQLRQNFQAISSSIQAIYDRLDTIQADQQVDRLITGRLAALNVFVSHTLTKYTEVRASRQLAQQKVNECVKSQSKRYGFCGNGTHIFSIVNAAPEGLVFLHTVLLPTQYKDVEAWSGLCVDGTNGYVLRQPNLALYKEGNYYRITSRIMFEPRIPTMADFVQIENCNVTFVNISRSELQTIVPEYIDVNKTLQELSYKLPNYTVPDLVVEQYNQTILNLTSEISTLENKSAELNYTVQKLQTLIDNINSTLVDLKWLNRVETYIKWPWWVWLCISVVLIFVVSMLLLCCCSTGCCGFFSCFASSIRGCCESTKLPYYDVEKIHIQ
# UniProt P20782, sequence (whole entry, looked up): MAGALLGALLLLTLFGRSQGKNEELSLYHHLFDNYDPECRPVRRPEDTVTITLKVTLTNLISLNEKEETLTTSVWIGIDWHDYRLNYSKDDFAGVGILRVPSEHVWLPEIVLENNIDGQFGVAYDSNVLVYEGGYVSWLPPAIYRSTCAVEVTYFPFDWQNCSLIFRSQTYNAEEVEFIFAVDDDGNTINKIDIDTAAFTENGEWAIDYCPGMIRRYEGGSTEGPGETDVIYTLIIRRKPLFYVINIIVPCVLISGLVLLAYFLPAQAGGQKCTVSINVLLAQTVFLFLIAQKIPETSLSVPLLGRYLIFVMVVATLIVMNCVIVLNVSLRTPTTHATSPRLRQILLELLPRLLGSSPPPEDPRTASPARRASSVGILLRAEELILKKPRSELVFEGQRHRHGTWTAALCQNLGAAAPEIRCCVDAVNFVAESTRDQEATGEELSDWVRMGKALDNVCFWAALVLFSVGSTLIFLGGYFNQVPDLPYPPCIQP
# UniProt P04756, sequence (whole entry, looked up): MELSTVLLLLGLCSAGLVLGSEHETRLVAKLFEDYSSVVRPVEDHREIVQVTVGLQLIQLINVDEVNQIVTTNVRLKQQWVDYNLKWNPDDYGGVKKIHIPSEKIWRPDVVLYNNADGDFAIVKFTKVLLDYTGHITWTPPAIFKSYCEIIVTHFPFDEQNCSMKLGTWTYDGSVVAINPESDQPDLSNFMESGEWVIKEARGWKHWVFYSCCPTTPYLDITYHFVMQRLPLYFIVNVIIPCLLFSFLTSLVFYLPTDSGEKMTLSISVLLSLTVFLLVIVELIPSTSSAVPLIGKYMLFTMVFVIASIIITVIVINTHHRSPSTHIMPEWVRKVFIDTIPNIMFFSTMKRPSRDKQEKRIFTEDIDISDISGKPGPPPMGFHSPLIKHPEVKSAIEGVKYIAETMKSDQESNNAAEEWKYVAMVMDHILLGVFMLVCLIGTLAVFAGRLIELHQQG
# UniProt Q81Y92, sequence (whole entry, looked up): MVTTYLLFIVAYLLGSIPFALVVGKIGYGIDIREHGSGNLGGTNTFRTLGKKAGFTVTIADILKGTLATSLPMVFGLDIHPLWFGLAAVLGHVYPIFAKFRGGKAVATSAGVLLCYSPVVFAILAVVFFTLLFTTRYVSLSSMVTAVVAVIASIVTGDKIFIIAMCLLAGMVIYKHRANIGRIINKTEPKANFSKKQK
Molecule,target,test,system,conditions,IC50
CC(C)(C)c1cn([C@H]2[C@H]([C@H](O)[C@H](O)CO)OC(C(=O)O)=C[C@@H]2O)nn1,nanI,"enzyme activity, inhibitor",,,270000 nM
O=C1c2ccccc2C(c2ccccc2F)C(=O)N1O (stereo not drawn),OPG149,,,,1330 nM
CCCC(C(=O)Nc1cc(NC2CCNC2)ccc1C)n1cccc2nc(SCc3ccc(F)cc3)nc1-2 (stereo not drawn),"Replicase polyprotein 1ab, papain-like protease (rep, Middle East respiratory syndrome-related coronavirus, UniProt K9N7C7)","enzyme activity, inhibitor",,,> 100000 nM
CC(C)CCN[C@H]1[C@H]([C@H](O)[C@H](O)CO)OC(C(=O)O)=C[C@@H]1O,nanI,"enzyme activity, inhibitor",,,> 500000 nM
C=CC(=O)N1CCCC(C(=O)O)(C(F)(F)F)C1 (stereo not drawn),Polyprotein P1234 nsP2 protease domain,"enzyme activity, inhibitor, FRET",,"90 min, 30 min preincubation",8600 ± 2800 nM
O=C(O)C1=C[C@H](O)[C@@H](n2cc(-c3ccc(-c4ccccc4)cc3)nn2)[C@H]([C@H](O)[C@H](O)CO)O1,nanI,"enzyme activity, inhibitor",,,> 500000 nM
CCC(C(=O)Nc1cc(NC2CCOCC2)ccc1C)n1cc(F)cc2nc(SCc3ccc(F)cc3)nc1-2 (stereo not drawn),"Replicase polyprotein 1ab, papain-like protease (rep, Middle East respiratory syndrome-related coronavirus, UniProt K9N7C7)","enzyme activity, inhibitor",,,> 100000 nM
CCC(CC)[C@H](NC(C)=O)[C@@H]1[C@H](O)[C@@H](C(=O)O)C[C@H]1N=C(N)N,"Neuraminidase (Influenza A virus, UniProt I3NP73)","enzyme activity, inhibitor","swine influenza A virus, H1N1pdm09",,0.09 ± 0.01 nM
CCC(C(=O)Nc1ccccc1C)n1cccc2nc(SCc3ccc(OC)cc3)nc1-2 (stereo not drawn),"Replicase polyprotein 1ab, papain-like protease (rep, Middle East respiratory syndrome-related coronavirus, UniProt K9N7C7)","enzyme activity, inhibitor",,,> 100000 nM
COc1cccc(-c2nc(C(=O)NCC=CS(C)(=O)=O)c(C)[nH]2)c1,Polyprotein P1234 nsP2 protease domain,"protease activity, inhibitor, FRET",,"90 min, 30 min preincubation",590 nM and < 1500 nM
CCCCCCCC/C=C\CCCCCCCC(=O)C(F)(F)P(=O)(O)O,"Glycerol-3-phosphate acyltransferase 3 (plsY3, Bacillus anthracis, UniProt Q81Y92)",inhibitor,,,140000 nM
COc1cc2c3cc1Oc1cc(ccc1O)C[C@@H]1c4c(cc(OC)c(O)c4Oc4ccc(cc4)C[C@@H]3N(C)CC2)CC[N+]1(C)C,"Chrnd/Chrna1/Chrne (Mus musculus, UniProt P02716+P04756+P20782)","endplate current peak height, inhibitor, two-electrode voltage clamp",mouse hemidiaphragm,"holding potential -80 mV, after paraoxon",339 nM
CCCCCc1cc(O)c(C/C=C(\C)CCC=C(C)C)c(O)c1,"Scn10a (Mus musculus, UniProt Q6QIY3)","ion current, inhibitor, patch clamp",,,~5000 nM
CC[C@H](C)[C@H](NC(=O)[C@H](Cc1c[nH]c2ccccc12)NC(=O)[C@@H](N)C(C)C)C(=O)N[C@@H](CC(N)=O)C(=O)N[C@@H](CC(N)=O)C(=O)N[C@@H](CO)C(=O)N[C@@H](Cc1c[nH]c2ccccc12)C(=O)N[C@@H](CCCCN)C(=O)N[C@@H](Cc1ccccc1)C(=O)O,"HLA class I histocompatibility antigen, A alpha chain, allele A*23:01 (Homo sapiens, UniProt P04439)",biochemical,,,5.3 nM
CC(C)C[C@H](NC(=O)[C@H](CO)NC(=O)CNC(=O)[C@H](CCCCN)NC(=O)[C@@H](NC(=O)[C@H](CC(N)=O)NC(=O)[C@H](CC(N)=O)NC(=O)[C@H](C)NC(=O)[C@@H](N)CCCNC(=N)N)[C@@H](C)O)C(=O)O,"HLA class I histocompatibility antigen, B alpha chain","binding, competitor",,,2090 nM
CC[C@H](C)[C@H](NC(=O)[C@H](Cc1ccc(O)cc1)NC(=O)[C@@H](N)C(C)C)C(=O)N[C@@H](CC(N)=O)C(=O)N[C@@H](Cc1c[nH]cn1)C(=O)N1CCC[C@H]1C(=O)N[C@@H](Cc1ccccc1)C(=O)N[C@@H](CCSC)C(=O)N[C@@H](Cc1ccc(O)cc1)C(=O)O,"HLA class I histocompatibility antigen, A alpha chain, allele A*29:02 (Homo sapiens, UniProt P04439)",biochemical,,,0.68 nM
CCC(C(=O)Nc1ccccc1C)n1cccc2nc(SCc3ccccc3F)nc1-2 (stereo not drawn),"Replicase polyprotein 1ab, papain-like protease (rep, Severe acute respiratory syndrome-related coronavirus, UniProt P0C6X7)",enzyme activity,,,3550 ± 220 nM
CC[C@H](C)[C@H](NC(=O)[C@H](CC(=O)O)NC(=O)[C@H](CO)NC(=O)[C@H](CC(=O)O)NC(=O)[C@H](CCCCN)NC(=O)[C@H](CCC(N)=O)NC(=O)[C@H](Cc1ccc(O)cc1)NC(=O)[C@H](CCC(=O)O)NC(=O)[C@H](CC(C)C)NC(=O)[C@@H](NC(=O)[C@H](CCC(=O)O)NC(=O)[C@H](CCSC)NC(=O)[C@@H](NC(=O)[C@H](CC(C)C)NC(=O)[C@H](CO)NC(=O)[C@H](CCC(=O)O)NC(=O)[C@H](CC(C)C)NC(=O)[C@H](CC(C)C)NC(=O)[C@H](CCCCN)NC(=O)[C@H](Cc1ccccc1)NC(=O)[C@H](CCC(=O)O)NC(=O)[C@H](CCC(=O)O)NC(=O)[C@H](Cc1ccc(O)cc1)NC(=O)[C@H](CC(C)C)NC(=O)[C@H](CC(C)C)NC(=O)[C@@H](NC(=O)[C@H](CCCCN)NC(=O)[C@@H](N)CC(C)C)C(C)C)[C@@H](C)CC)[C@@H](C)CC)C(=O)N[C@@H](CCCCN)C(=O)N[C@@H](CCC(=O)O)C(=O)N[C@@H](CC(N)=O)C(=O)N[C@@H](C)C(=O)N[C@@H](CCC(=O)O)C(=O)N[C@@H](CC(=O)O)C(=O)N[C@H](C(=O)N[C@@H](CCCCN)C(=O)O)[C@@H](C)O,"Spike glycoprotein (S, Human coronavirus 229E, UniProt P15423)",cell-based,,,> 5000 nM
CCC(C(=O)Nc1ccccc1C)n1cccc2nc(S(=O)(=O)Cc3ccc(F)cc3)nc1-2 (stereo not drawn),"Replicase polyprotein 1ab, papain-like protease (rep, Middle East respiratory syndrome-related coronavirus, UniProt K9N7C7)","enzyme activity, inhibitor",,,> 100000 nM
CC(C)C[C@H](NC(=O)[C@H](CO)NC(=O)[C@H](CC(C)C)NC(=O)[C@@H]1CCCN1C(=O)[C@H](CO)NC(=O)CNC(=O)[C@H](CC(C)C)NC(=O)[C@@H](N)CCCNC(=N)N)C(=O)O,"HLA class I histocompatibility antigen, B alpha chain","binding, competitor",,,23400 nM
CC[C@H](C)[C@H](NC(=O)[C@H](CC(N)=O)NC(=O)[C@H](CC(N)=O)NC(=O)[C@H](Cc1ccccc1)NC(=O)[C@@H]1CCCN1C(=O)[C@@H](N)CCCCN)C(=O)N[C@@H](CC(C)C)C(=O)N[C@@H](CC(=O)O)C(=O)N[C@@H](CC(C)C)C(=O)O,"HLA class I histocompatibility antigen, B alpha chain",biochemical,,,362 nM
O=C(N1CCC2(CC1)C[C@H](CN1CCCCS1(=O)=O)CCO2)C1(c2ccccc2)CCCC1,"Polyprotein P1234, nsP2 (Chikungunya virus, UniProt Q8JUX6)","nsP2 RNA unwinding, inhibitor, FRET strand separation",,,130 nM
CC[C@H](C)[C@H](NC(=O)[C@H](CC(N)=O)NC(=O)CNC(=O)[C@H](CC(=O)O)NC(=O)[C@H](Cc1ccc(O)cc1)NC(=O)[C@H](Cc1ccc(O)cc1)NC(=O)[C@@H](N)CCCNC(=N)N)C(=O)N[C@@H](Cc1ccc(O)cc1)C(=O)N[C@@H](CC(=O)O)C(=O)N[C@@H](CC(C)C)C(=O)O,"HLA class I histocompatibility antigen, A alpha chain, allele A*24:02 (Homo sapiens, UniProt P04439)",biochemical,,,121 nM
Cn1cnc(Cn2c(=O)[nH]/c(=N\c3cc4cn(C)nc4cc3Cl)n(Cc3cc(F)c(F)cc3F)c2=O)n1,"Cytochrome P450 2C9 (CYP2C9, Homo sapiens, UniProt P11712)",inhibitor,human liver microsomes,"30 min preincubation, preincubation with NADPH, with: diclofenac 12 µM",> 100000 nM
CC[C@H](C)[C@H](NC(=O)[C@@H](NC(=O)[C@@H](N)Cc1ccccc1)[C@@H](C)O)C(=O)N[C@@H](CC(=O)O)C(=O)N[C@@H](Cc1ccccc1)C(=O)N[C@@H](CCCCN)C(=O)N[C@@H](CC(C)C)C(=O)N[C@@H](CCCCN)C(=O)N[C@@H](Cc1ccc(O)cc1)C(=O)O,"HLA class I histocompatibility antigen, A alpha chain, allele A*26:01 (Homo sapiens, UniProt P04439)",biochemical,,,21 nM
CCOc1cc(C(=O)NCC=CS(C)(=O)=O)on1,Polyprotein P1234 nsP2 protease domain,"protease activity, inhibitor, FRET",,"90 min, 30 min preincubation",> 200000 nM
CC[C@H](C)[C@H](NC(=O)[C@@H](NC(=O)CNC(=O)[C@H](CO)NC(=O)[C@H](CO)NC(=O)[C@@H](NC(=O)[C@@H](N)C(C)C)[C@@H](C)O)C(C)C)C(=O)N[C@@H](Cc1ccc(O)cc1)C(=O)N[C@@H](CCCCN)C(=O)O,"HLA class I histocompatibility antigen, A alpha chain, allele A*11:01 (Homo sapiens, UniProt P04439)",biochemical,,,3.9 nM
oseltamivir carboxylate,"Neuraminidase (Influenza A virus, UniProt C7FH46)","enzyme activity, inhibitor",A(H1N1)pdm09,mean over viruses,0.55 ± 0.18 nM
CCC(CC)[C@H](NC(C)=O)[C@@H]1[C@H](O)[C@@H](C(=O)O)C[C@H]1N=C(N)N,"neuraminidase (Influenza A virus, UniProt A9YLD5)",,,,0.37 nM
CCC(C(=O)Nc1cc(NC2CCOC2)ccc1C)n1cc(Cl)cc2nc(SCc3ccc(F)cc3)nc1-2 (stereo not drawn),"Replicase polyprotein 1ab, papain-like protease (rep, Severe acute respiratory syndrome-related coronavirus, UniProt P0C6X7)",enzyme activity,,,174 ± 29 nM
CCc1c(C(=O)C(N)=O)c2c(OCC(=O)O)cccc2n1Cc1ccccc1,Daboia russelii venom PLA2,"enzyme activity, inhibitor",,"venom from MP, with: NOB substrate",1680 nM
CC(=O)N[C@H]1C(O)O[C@H](CO)[C@@H](O[C@@H]2O[C@H](CO)[C@H](O)[C@H](O)[C@H]2O)[C@@H]1O (stereo partly drawn),"Spike glycoprotein, with ACE2 (Severe acute respiratory syndrome coronavirus 2, UniProt P0DTC2)","binding to human ACE2, inhibitor",SARS-CoV-2,,23.5 nM
CCC(C(=O)Nc1cc(NC2COC2)ccc1C)n1cccc2nc(SCc3ccc(F)cc3)nc1-2 (stereo not drawn),"Replicase polyprotein 1ab, papain-like protease (rep, Severe acute respiratory syndrome-related coronavirus, UniProt P0C6X7)",enzyme activity,,,361 ± 39 nM
NC(=O)CI,Polyprotein P1234 nsP2 protease domain,"protease activity, inhibitor, FRET",,"90 min, 30 min preincubation",15000 nM and 20000 nM
CCC(CC)O[C@@H]1C=C(C(=O)O)C[C@H](N)[C@H]1NC(C)=O,"Neuraminidase (Influenza A virus, UniProt L0MUX9)","enzyme activity, inhibitor","swine influenza A virus, H1N2",,0.18 ± 0.02 nM
C=CC(=O)N1C[C@@H]2CC[C@@H]2[C@H]1C(=O)O,Polyprotein P1234 nsP2 protease domain,"enzyme activity, inhibitor, FRET",,"90 min, 30 min preincubation",20000 ± 7000 nM
CCC(C(=O)Nc1cc(NC2CNC2)ccc1C)n1cc(Cl)cc2nc(SCc3ccc(F)cc3)nc1-2 (stereo not drawn),"Replicase polyprotein 1ab, papain-like protease (rep, Severe acute respiratory syndrome-related coronavirus, UniProt P0C6X7)",enzyme activity,,,113 ± 24 nM
C=CS(=O)(=O)c1ccc(C#N)c(C(F)(F)F)c1,Polyprotein P1234 nsP2 protease domain,"protease activity, inhibitor, FRET",,"90 min, 30 min preincubation",12000 ± 2000 nM
O=C1Cc2cc(-c3ccco3)ccc2C(=O)N1O,OPG149,,,,87 nM

# A few entries again:
Molecule,target,test,system,conditions,IC50
C=CC(=O)N1C[C@@H]2CC[C@@H]2[C@H]1C(=O)O,Polyprotein P1234 nsP2 protease domain,"enzyme activity, inhibitor, FRET",,"90 min, 30 min preincubation",20000 ± 7000 nM
CCC(C(=O)Nc1ccccc1C)n1cccc2nc(S(=O)(=O)Cc3ccc(F)cc3)nc1-2 (stereo not drawn),"Replicase polyprotein 1ab, papain-like protease (rep, Middle East respiratory syndrome-related coronavirus, UniProt K9N7C7)","enzyme activity, inhibitor",,,> 100000 nM
CCC(C(=O)Nc1cc(NC2CCOC2)ccc1C)n1cc(Cl)cc2nc(SCc3ccc(F)cc3)nc1-2 (stereo not drawn),"Replicase polyprotein 1ab, papain-like protease (rep, Severe acute respiratory syndrome-related coronavirus, UniProt P0C6X7)",enzyme activity,,,174 ± 29 nM
CC(C)C[C@H](NC(=O)[C@H](CO)NC(=O)CNC(=O)[C@H](CCCCN)NC(=O)[C@@H](NC(=O)[C@H](CC(N)=O)NC(=O)[C@H](CC(N)=O)NC(=O)[C@H](C)NC(=O)[C@@H](N)CCCNC(=N)N)[C@@H](C)O)C(=O)O,"HLA class I histocompatibility antigen, B alpha chain","binding, competitor",,,2090 nM
O=C(N1CCC2(CC1)C[C@H](CN1CCCCS1(=O)=O)CCO2)C1(c2ccccc2)CCCC1,"Polyprotein P1234, nsP2 (Chikungunya virus, UniProt Q8JUX6)","nsP2 RNA unwinding, inhibitor, FRET strand separation",,,130 nM
C=CC(=O)N1CCCC(C(=O)O)(C(F)(F)F)C1 (stereo not drawn),Polyprotein P1234 nsP2 protease domain,"enzyme activity, inhibitor, FRET",,"90 min, 30 min preincubation",8600 ± 2800 nM
